Results collected from several papers.
Each line is one published result; not all experiments were run side by side. Values joined by “and” are separate records of one study, mostly repeats; a detail may differ. ± gives the spread as reported.
rep main protease: Replicase polyprotein 1ab, main protease (rep, Severe acute respiratory syndrome coronavirus 2, UniProt P0DTD1)

COc1ccc2c(O[C@@H]3C[C@H]4C(=O)N[C@]5(C(=O)NS(=O)(=O)C6CC6)C[C@H]5/C=C\CCCCN(C)C(=O)[C@@H]4C3)cc(-c3nc(C(C)C)cs3)nc2c1C  IC50 (SARS-CoV-2; viral replication, nucleoprotein immunofluorescence; Vero E6): 4.2 µM
COc1cc2c(cc1OC)CN(CCc1ccc(NC(=O)c3cccc4c(=O)c5cccc(OC)c5[nH]c34)cc1)CC2  IC50 (SARS-CoV-2; viral replication, anti-nucleoprotein immunostaining; Vero E6): 0.617 µM
O=C(CSc1nc2c(c(=O)[nH]1)CCCC2)NNC(=O)c1ccc([N+](=O)[O-])cc1  IC50 (SARS-CoV-2; viral cytopathic effect; Vero E6, NRC-03-nhCoV): 38.5 µM
O=C(O)c1ccc2nc(-c3cc(Cl)cc(Cl)c3)oc2c1  IC50 (SARS-CoV-2; viral replication; Huh-7): > 2 µM
O=C(CSc1nc2ccccc2c(=O)[nH]1)NNC(=O)c1ccc(Cl)cc1  IC50 (SARS-CoV-2; viral cytopathic effect; Vero E6, NRC-03-nhCoV): 74.3 µM
mycosubtilin  IC50 (SARS-CoV-2; viral replication; Vero; 24 h): 2.8 ± 0.4 µg/mL
CCCN(CCC)CCc1ccc(OC)c(OCCc2ccccc2)c1  IC50 (SARS-CoV-2; viral replication, anti-NP immunostaining; Vero E6): 4.07 µM
CCCCCCCCCCC(C)(C)C(=O)Nc1c(OC)cc(OC)cc1OC  IC50 (SARS-CoV-2; viral cytopathic effect; Vero E6; 3 days): 0.3 µM
Cc1ccc(N)cc1C(=O)N[C@H](C)c1cccc2ccccc12  IC50 (SARS-CoV-2; viral replication; USA/WA1/2020; 48 h): > 20 µM
Cc1nc(C(=O)N2CC[C@@H]([C@@H]3CCCN3C(=O)c3cc(O)ccc3Cl)C2)cc(=O)[nH]1  inhibition (rep main protease; enzyme activity, inhibitor; 5 µM): 13.3%
O=C(CSc1nc2ccccc2c(=O)[nH]1)NNC(=O)c1ccccc1Br  IC50 (SARS-CoV-2; viral cytopathic effect; Vero E6, NRC-03-nhCoV): 21.4 µM
COc1cc2c(cc1OC)C(=O)C(CC1CCN(Cc3ccccc3)CC1)C2 (stereo not drawn)  IC50 (SARS-CoV-2; viral replication, anti-nucleoprotein immunostaining; Vero E6): > 10 µM
Nc1ncnc2c([C@@H]3N[C@H](CO)[C@@H](O)[C@H]3O)c[nH]c12  inhibition (Lassa mammarenavirus; viral replication; HeLa, Josiah; 12.5 µM): 6.1%
COc1ccc(O)cc1OC  inhibition (rep main protease; reporter gene (Gaussia luciferase), inhibitor; 20 µM): -0.415%
CC(C)(C)c1cnc(CSc2cnc(NC(=O)C3CCN(CC(=O)NCCOCCOCCOCCNc4cccc5c4C(=O)N(C4CCC(=O)NC4=O)C5=O)CC3)s2)o1 (stereo not drawn)  IC50 (SARS-CoV-2; viral replication): < 0.16 µM
O=C(CSc1nc2ccccc2c(=O)[nH]1)NNC(=O)c1ccccc1Cl  IC50 (SARS-CoV-2; viral cytopathic effect; Vero E6, NRC-03-nhCoV): 458 µM
O=C(Nc1ccc([N+](=O)[O-])cc1Cl)c1cc(Cl)ccc1O  IC50 (SARS-CoV-2; viral replication; Vero E6): < 1 µM
CCN(CC)C(=O)C1(c2ccccc2)CC1CN (stereo not drawn)  IC50 (SARS-CoV-2; viral replication; Vero E6; inactive set pIC50 4): > 10 µM
CN1C(=O)OC(C)(C)C1=O  IC50 (SARS-CoV-2; viral replication; Huh-7): > 2 µM
OCCN1CCN(CCCN2c3ccccc3C=Cc3ccccc32)CC1  IC50 (SARS-CoV-2; viral replication, anti-nucleoprotein immunostaining; Vero E6): > 10 µM
CC1=C(C(=O)OC2CCCCC2)C(c2ccc([N+](=O)[O-])cc2)C2=C(CC(C)(C)CC2=O)N1 (stereo not drawn)  IC50 (SARS-CoV-2; viral cytopathic effect; Vero E6; 3 days): 0.0151 µM
C[C@@]12C[C@@]3(O)O[C@@H](O1)[C@]1(COC(=O)c4ccc(O)cc4)[C@H]3C[C@@]12O[C@@H]1O[C@H](COC(=O)c2ccccc2)[C@@H](O)[C@H](O)[C@H]1O  inhibition (rep main protease; reporter gene (Gaussia luciferase), inhibitor; 20 µM): 1.32%
CNC(=O)[C@@H](NC(=O)[C@H](CC(C)C)[C@H](O)C(=O)NO)C(C)(C)C  inhibition (prothrombin time; human platelet-poor plasma; 100 µM, with: GA venom): 19.9% and 19.3% and 18.5%
O=C(CN1CCC(CN2Cc3ccccc3C2=O)CC1)c1ccc(F)cc1  IC50 (SARS-CoV-2; viral replication; A549 expressing ACE2; inactive set pIC50 4): > 10 µM
O=c1c2ccccc2[se]n1-c1ccccc1  IC50 (SARS-CoV-2): 24.6 µM
C=C[C@@H]1C[C@]1(NC(=O)[C@@H]1C[C@@H](Oc2ncc(OC)c3ccc(Cl)cc23)CN1C(=O)[C@@H](NC(=O)OC(C)(C)C)C(C)(C)C)C(=O)NS(=O)(=O)C1CC1  IC50 (SARS-CoV-2; viral replication, nucleoprotein immunofluorescence; Vero E6): 15 µM
O=C(CSc1nc2c(c(=O)[nH]1)CCCC2)NNC(=O)c1ccc(Cl)cc1  IC50 (SARS-CoV-2; viral cytopathic effect; Vero E6, NRC-03-nhCoV): 26.4 µM
O=C(c1ccccc1)c1ccc2n1CCC2C(=O)O (stereo not drawn)  IC50 (SARS-CoV-2; viral replication; Huh-7): > 2 µM
CCCC[C@H](NC(=O)[C@@H]1[C@@H]2[C@H](CN1C(=O)[C@@H](NC(=O)NC1(CS(=O)(=O)C(C)(C)C)CCCCC1)C(C)(C)C)C2(C)C)C(=O)C(=O)NC1CC1  IC50 (SARS-CoV-2; viral replication, nucleoprotein immunofluorescence; Vero E6): 7.7 µM
Cn1cnc(Cn2c(=O)[nH]/c(=N\c3cc4cn(C)nc4cc3Cl)n(Cc3cc(F)c(F)cc3F)c2=O)n1  any TEAE, mild severity (human, severe renal impairment; oral, 375 mg): 0%
CCOC(=O)/C=C/[C@H](C[C@@H]1CCNC1=O)NC(=O)[C@@H](CC(=O)[C@@H](NC(=O)c1cc(C)on1)C(C)C)Cc1ccc(F)cc1  IC50 (SARS-CoV-2; viral replication; Vero C1008; 48 h): 34.1 µM
COc1ccccc1C(=O)NNC(=O)CSc1nc2ccccc2c(=O)[nH]1  IC50 (SARS-CoV-2; viral cytopathic effect; Vero E6, NRC-03-nhCoV): 259 µM
CN(C)CC[C@@H](c1ccc(Cl)cc1)c1ccccn1  IC50 (SARS-CoV-2; viral replication, anti-nucleoprotein immunostaining; Vero E6): > 10 µM
CCN(CC)CCNC(=O)c1ccc(N)cc1  IC50 (SARS-CoV-2; viral replication; Huh-7): > 2 µM
CCOc1ccc2cc(C(=O)Nc3nc4ccccc4[nH]3)[nH]c2c1  IC50 (SARS-CoV-2; cell-cell fusion; HeLa-ACE2, Delta spike): > 10 µM
CC(=O)Nc1nc(C)c(-c2ccc(Cl)c(S(=O)(=O)NCCO)c2)s1  IC50 (SARS-CoV-2; viral cytopathic effect; Vero E6; 3 days): ~0.00551 µM
CO/N=C(\C(=O)N[C@@H]1C(=O)N2C(C(=O)O)=C(COC(C)=O)CS[C@H]12)c1csc(N)n1  IC50 (SARS-CoV-2; viral replication; Huh-7): > 2 µM
Cc1nccn1CC1CCc2c(c3ccccc3n2C)C1=O (stereo not drawn)  IC50 (SARS-CoV-2; viral replication, RT-qPCR; A549 expressing ACE2): > 10 µM
Cc1cccc(NC(=O)C[S+]([O-])c2nc(-c3ccccc3)cn2-c2ccc(Cl)cc2)c1C (racemic)  IC50 (SARS-CoV-2; viral replication; Vero C1008, Delta B.1.617.2): 4.49 µM
C[C@H](Nc1ncnc2nc[nH]c12)c1cc2cccc(Cl)c2c(=O)n1-c1ccccc1  IC50 (SARS-CoV-2; viral replication; Huh-7): > 2 µM
O=C(CSc1nc2c(c(=O)[nH]1)CCCC2)Nc1ccccc1C(=O)O  IC50 (SARS-CoV-2; viral cytopathic effect; Vero E6, NRC-03-nhCoV): 174 µM
C#C[C@]1(O)CC[C@H]2[C@@H]3CCc4cc(OC)ccc4[C@H]3CC[C@@]21C  IC50 (SARS-CoV-2; viral replication; Huh-7): > 2 µM
O=C(CSc1nc2ccccc2c(=O)[nH]1)NNC(=O)c1ccccc1  IC50 (SARS-CoV-2; viral cytopathic effect; Vero E6, NRC-03-nhCoV): 318 µM
CCCC(=O)Nc1ccc(OCC(O)CNC(C)C)c(C(C)=O)c1 (stereo not drawn)  IC50 (SARS-CoV-2; viral replication; Huh-7): > 2 µM
CC[C@H](C)[C@H](NC(=O)[C@H](CC(C)C)NC(=O)[C@H](Cc1c[nH]c2ccccc12)NC(=O)[C@H](CCC(N)=O)NC(=O)[C@@H](NC(=O)[C@H](Cc1ccccc1)NC(=O)[C@H](C)NC(=O)[C@H](CCCCNC(=O)COCCOCCNC(=O)COCCOCCNC(=O)CC[C@H](NC(=O)CCCCCCCCCCCCCCCCCCC(=O)O)C(=O)O)NC(=O)[C@H](CCC(N)=O)NC(=O)[C@H](C)NC(=O)[C@@H](NC(=O)[C@H](CCCCN)NC(=O)[C@H](CC(=O)O)NC(=O)[C@H](CC(C)C)NC(=O)C(C)(C)NC(=O)[C@@H](NC(=O)[C@H](CO)NC(=O)[C@H](Cc1ccc(O)cc1)NC(=O)[C@H](CC(=O)O)NC(=O)[C@H](CO)NC(=O)[C@@H](NC(=O)[C@H](Cc1ccccc1)NC(=O)[C@@H](NC(=O)CNC(=O)[C@H](CCC(=O)O)NC(=O)C(C)(C)NC(=O)[C@@H](N)Cc1ccc(O)cc1)[C@@H](C)O)[C@@H](C)O)[C@@H](C)CC)[C@@H](C)CC)C(C)C)C(=O)N[C@@H](C)C(=O)NCC(=O)NCC(=O)N1CCC[C@H]1C(=O)N[C@@H](CO)C(=O)N[C@@H](CO)C(=O)NCC(=O)N[C@@H](C)C(=O)N1CCC[C@H]1C(=O)N1CCC[C@H]1C(=O)N1CCC[C@H]1C(=O)N[C@@H](CO)C(N)=O  serum amylase (healthy subjects, single ascending dose; 1.0 mg, day 29): 66.2 ± 8.2 U/L
